Measured values from different studies.
± marks the error that the study gave.

SMILES	assay	system	conditions	scale	measurement	result
N[C@H]1CC[C@H](CNc2ncc(Cl)c(Nc3cc(C4CC4)[nH]n3)n2)CC1	–	wild-type mouse	dose not given	reference: without ABT over with ABT	blood clearance change	-20.5%
CN(C)c1ccc(-c2nc3ccc(OCCCCCN4CCN5CCN(CC4)CC(=O)[O][Al]([18F])[O]C(=O)C5)cc3s2)cc1	–	ICR mouse, blood	intravenous	reference: 2 min over 60 min	blood clearance ratio	25.2
O=C(CCCCC[N+]#[C][99Tc-5]([C]#[N+]CCCCCC(=O)N[C@H]1C(O)O[C@H](CO)[C@@H](O)[C@@H]1O)([C]#[N+]CCCCCC(=O)N[C@H]1C(O)O[C@H](CO)[C@@H](O)[C@@H]1O)([C]#[N+]CCCCCC(=O)N[C@H]1C(O)O[C@H](CO)[C@@H](O)[C@@H]1O)([C]#[N+]CCCCCC(=O)N[C@H]1C(O)O[C@H](CO)[C@@H](O)[C@@H]1O)[C]#[N+]CCCCCC(=O)N[C@H]1C(O)O[C@H](CO)[C@@H](O)[C@@H]1O)N[C@H]1C(O)O[C@H](CO)[C@@H](O)[C@@H]1O (some centres unmarked)	–	healthy CD-1 mouse, blood	60 min	–	blood uptake	0.33 ± 0.06 %ID/g
COC(=O)c1ccc2c(c1)NC(=O)/C2=C(\Nc1ccc2c(c1)CCN2C(=O)CN1CCOCC1)c1ccccc1	–	CD-1 mouse	intravenous, 10 mg/kg	reference: liver blood flow	blood clearance	~30%
Cc1ccc(CN2C(=O)/C(=N\c3ccc(Cl)cc3Br)c3ccccc32)cc1	–	mouse	200 mg/kg	–	blood urea	decreased
Cc1ccc(C(C)C)cc1.O=C(N=P(c1ccccc1)(c1ccccc1)c1ccccc1)c1ccccn1.[Cl-].[Cl-].[Ru+2]	ICP-MS, refers to: ruthenium	NOD.CB17-Prkdc scid/J mouse, blood	6 h after last dose	–	blood concentration	4200 ± 1300 ng/mL
N#Cc1cc(C(=O)OCC[18F])c(C(F)(F)F)nc1N1CCC(C(=O)NS(=O)(=O)c2ccc(Cl)s2)CC1	–	mouse, whole blood	intravenous, 11.1 MBq	–	blood half-life	27.1 min
CCC(=O)N1CCC(NC(=O)Nc2ccc(OC(F)(F)F)cc2)CC1	–	male C57BL/6J mouse, blood	subcutaneous, 0.3 mg/kg, 168 h, day 7	–	blood concentration	~15 nM
COc1ccc2ccc3c(c2c1)C=[N+]1C2CCCCC2[N+]2=Cc4ccc(OCCN5CCCCC5)cc4[O][Au-]21[O]3.F[P-](F)(F)(F)(F)F (centres unmarked)	ICP-MS, refers to: gold	mouse	intraperitoneal, 5 mg/kg, 24 h	–	blood concentration	> 1000 ng/mL
CC(=O)N[C@H]1CCCN(O)C(=O)/C=C(/C)CCOC(=O)[C@@H](NC(C)=O)CCCN(O)C(=O)/C=C(/C)CCOC(=O)[C@@H](NC(C)=O)CCCN(O)C(=O)/C=C(/C)CCOC1=O [gallium-68 labelled]	–	BALB/c mouse, blood	IV, dose not given, 30 min	–	blood level	1.6 ± 0.37 %ID/g
C=CCc1ccc(O)c(-c2cc(CC=C)ccc2OCCCCCCCCCC[P+](c2ccccc2)(c2ccccc2)c2ccccc2)c1	–	C57BL/6 mouse, non-tumour-bearing	dose not given, day 31	–	blood urea nitrogen	24.5 ± 3.9 mg/dL

A few entries again:
SMILES	assay	system	conditions	scale	measurement	result
N#Cc1cc(C(=O)OCC[18F])c(C(F)(F)F)nc1N1CCC(C(=O)NS(=O)(=O)c2ccc(Cl)s2)CC1	–	mouse, whole blood	intravenous, 11.1 MBq	–	blood half-life	27.1 min
